Published values pooled from the literature.
Parts stem from different laboratories: compare values within a part only. Substitutions count along the parent as printed.

Study 1 — method: protein-binding microarray; molecule type: double-stranded DNA, one strand shown; sample: in vitro; concentration: 0.8 µM; notes: whole 60-bp probe, no competitor; reading: higher = stronger binding; shared flanks, not repeated: … GTCTTGATTCGCTTGACGCTGCTG
Target: Centromere-binding protein 1, full length, N-terminal tag (CBF1, Saccharomyces cerevisiae, UniProt P17106, residues 1-351)
Sequence of UniProt P17106 (whole entry, looked up): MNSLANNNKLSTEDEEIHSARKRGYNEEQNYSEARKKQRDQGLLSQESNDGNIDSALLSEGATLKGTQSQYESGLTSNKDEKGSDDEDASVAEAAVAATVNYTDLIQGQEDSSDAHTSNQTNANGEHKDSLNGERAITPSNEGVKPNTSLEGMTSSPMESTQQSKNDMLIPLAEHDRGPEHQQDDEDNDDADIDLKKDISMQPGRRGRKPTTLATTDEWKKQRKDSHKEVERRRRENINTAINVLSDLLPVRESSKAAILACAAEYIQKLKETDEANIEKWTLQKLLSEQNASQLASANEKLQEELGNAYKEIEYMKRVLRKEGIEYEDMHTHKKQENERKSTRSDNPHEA
| Strand | fluorescence intensity |
| --- | --- |
| GAAATTGTATGAGGTAACATCACTTCAACGAAATAG | 540 a.u. |
| CTAACTGCACCTCCTAACATCACCATACTACGTTTC | 577 a.u. |
| GAATTTCTTTTTCACCACGTTAACGAAACTTTTTAG | 607 a.u. |
| CTACCCGGCCTGCGCTGCGTGCACCGACTGCGTTTC | 454 a.u. |
| CTATTTAAGTCTTGTCACATGACATAATAATAATTC | 9350 a.u. |
| GAATTCTGGGGTTACCACGATTACCAGCGGATTTAG | 507 a.u. |
| CCTAACTACTATAAGTACATCAGATAGCTTCGTACA | 479 a.u. |
| CTAAAAAGCTCACATGACACGCTTGTTTTGGAATTC | 2640 a.u. |
| TGTACGAAGCTATACAAGGTGACTATAGTAGTTAGG | 532 a.u. |
| CTATGAAAACGCATGAACGTGCTGCTGACGTTCTTC | 675 a.u. |
| GAATAGAGTCACTCCCCCGTGTGTTCGGTCCGGTAG | 626 a.u. |
| GAATCAATTTTTGTGATCATCTTTTGTTGCAAGTAG | 550 a.u. |
| CTATCTGCCACTGGTGGTGCTGATAGCGTCGACTTC | 476 a.u. |
| CTAAAGATGAAAAGAACCGTGATCAGCAACAGCTTC | 645 a.u. |
| CTACCATGCTGTTTCCATCACGTGCATGTCACGTTC | 11000 a.u. |
| GAATTTTTCTTTGCTGATGGCACTCAAGTCTAATAG | 510 a.u. |

Study 2 — method: protein-binding microarray; molecule type: double-stranded DNA, one strand shown; sample: in vitro; concentration: not given; reading: higher = stronger binding
Target: Max dimerization protein 1, bHLH-zipper, MAX partner unstated (MXD1, Homo sapiens, UniProt Q05195, residues 56-136)
Notes: k-mer, scored over probes, only values ≥0.25
Construct (chain): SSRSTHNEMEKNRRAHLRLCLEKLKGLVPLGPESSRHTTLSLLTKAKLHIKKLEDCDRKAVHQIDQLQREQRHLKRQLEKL
| Strand | E-score |
| --- | --- |
| CATGGGTC | 0.275 |
| CATGCTGA | 0.428 |
| ACGCGTCG | 0.292 |
| CATGTGGG | 0.46 |
| TCCACGCA | 0.321 |
| AACCTCAT | 0.273 |
| GGGGCGCA | 0.29 |
| CTCCCCCA | 0.276 |
| CATCATGC | 0.257 |
| ACCCACGG | 0.271 |
| GGCGTGCA | 0.302 |
| ACGGCGGG | 0.251 |
| ATGGCCCC | 0.252 |
| ATGTGTGG | 0.271 |
| ATTCATGC | 0.268 |
| GGGTTTTA | 0.267 |
| AGCATGTG | 0.436 |
| ATGTGACC | 0.253 |
| TAGGGGCA | 0.258 |
| ACGTGGCC | 0.377 |

Study 3 — target: CCNE2, cyclin fold, Cln2 fusion (human); method: yeast growth competition, sequencing; sample: yeast; notes: strong parent motif; reference: not given; reading: higher = stronger binding
Parent: WEE1 docking peptide (human); HKTFRKLRLFDTP
| Variant | normalised enrichment score |
| --- | --- |
| R5F | 0.463 |
| F4K | 0.709 |
| R8S | 1.14 |
| T12Q | -0.0382 |
| L7S | 0.307 |
| H1G | -0.0326 |
| K2A | 1.17 |
| L9C | 0.754 |
| K6W | 1.49 |
| K2N | 0.876 |
| K2R | 1.03 |
| R8E | 0.684 |
| H1A | -0.138 |
| L7K | 0.885 |
| K6Y | 1.82 |
| F4S | 0.744 |
| R5W | 1.05 |
| T3R | 0.837 |
| F10L | 0.446 |
| D11R | 0.655 |
| F4V | 0.381 |
| H1Q | 1.48 |
| P13Y | 1.11 |
| F10G | 0.495 |
| K2F | -0.0596 |

Study 4 — method: protein-binding microarray; molecule type: double-stranded DNA, one strand shown; sample: in vitro; concentration: 940 nM top; notes: 60-bp whole probe; added: salmon DNA 0.4 mg/ml; reference: random background probes; reading: higher = stronger binding; shared flanks, not repeated: GCCTAGCAC … GTCTTGATTCGCTTGACGCTGCTG
Target: Interferon regulatory factor 5, full length, phosphomimetic (IRF5, Homo sapiens, UniProt Q13568-2, residues 1-514, S451D/S453D/S456D/S462D)
| Strand | fitted relative affinity [z-score] |
| --- | --- |
| ACTAGTGTTTTTCTCCTATTGTGCTAG | 0.899 |
| TTAGAACTGGGGTATCGAATAGTGCTA | 0.715 |
| GACGATATCAGTCACGAGACGTGCTAG | -0.116 |
| ATAGGACTGCTTCTCCTTTAGTGCTAG | -0.0219 |
| GAAGGTATCGGGTTTCGGGACGTGCTA | 4.55 |
| GACGATATCGGGTTTCGAGCCGTGCTA | 1.3 |
| TTAGATTTCGGGTATAGATTAGTGCTA | 1.45 |
| TTTTCACTTTCTTTAACTCAGTGCTAG | 3.49 |
| TTTCTTTTCATTACTGCATTGTGCTAG | 3.71 |
| TCATACTTCCCACTGGTACTGTGCTAG | 0.472 |
| TTAGGTATCGGTTTCGGTCAGTGCTAG | 12.9 |
| GACGACCTCAGTTTCGAGACGTGCTAG | 3.79 |
| GGAGGGGGGCGGGGCGGTGGGTGCTAG | 4.26 |
| TTAGATTCCAGATTCGATTAGTGCTAG | 0.577 |
| CTCCTTCAGTATCCTTAGATGTGCTAG | 0.732 |
| TTAGGTATCGACTTTCGGTGAGTGCTA | 5.75 |
| GCCGGACTGGGTTTCGGGACGTGCTAG | 2.91 |
| GACGGTCTCCTATTCCTGACGTGCTAG | 0.241 |
| TTAGGCATCGGTTTCGGTTAGTGCTAG | 6.92 |

Repeated from above (study 1):
| Strand | fluorescence intensity |
| --- | --- |
| GAAATTGTATGAGGTAACATCACTTCAACGAAATAG | 540 a.u. |
| GAATCAATTTTTGTGATCATCTTTTGTTGCAAGTAG | 550 a.u. |
| CTATCTGCCACTGGTGGTGCTGATAGCGTCGACTTC | 476 a.u. |
| CTAACTGCACCTCCTAACATCACCATACTACGTTTC | 577 a.u. |
| CCTAACTACTATAAGTACATCAGATAGCTTCGTACA | 479 a.u. |
| CTACCCGGCCTGCGCTGCGTGCACCGACTGCGTTTC | 454 a.u. |
